Experimental data from different studies.
Each line is one published result; not all experiments were run side by side. ± marks the error that the study gave.
Organism: Plasmodium falciparum

CN1CCN(CCNc2cc(/C=C/c3ccc(F)cc3)nc3ccc(Cl)cc23)CC1 — EC50 (parasite growth, SYBR Green; DD2; 72 h, drug-resistant strain, blood stage): ≤ 0.015 µM
C[C@@H]1NC(=O)[C@H](CCCCCC(=O)[C@@H]2CO2)NC(=O)[C@H]2CCCN2C(=O)[C@H](Cc2ccccc2)NC1=O — EC50 (parasite growth, SYBR Green; DD2; drug-resistant strain, blood stage): 0.01 µM
CC(=O)NC(C)(C)C(=O)N[C@@H](C)C(=O)NC(C)(C)C(=O)N[C@@H](C)C(=O)NC(C)(C)C(=O)N[C@@H](C)C(=O)N[C@@H](CCC(N)=O)C(=O)NC(C)(C)C(=O)N[C@@H](CC(C)C)C(=O)NC(C)(C)C(=O)NCC(=O)N[C@@H](CC(C)C)C(=O)NC(C)(C)C(=O)N1CCC[C@H]1C(=O)N[C@H](C(=O)NC(C)(C)C(=O)NC(C)(C)C(=O)N[C@@H](CCC(N)=O)C(=O)N[C@@H](CCC(N)=O)C(=O)N[C@H](CO)Cc1ccccc1)C(C)C — EC50 (parasite growth; DD2; drug-resistant strain): 0.32 µM
Clc1ccc2nc(-c3ccncc3)cc(NCCCCN3CCOCC3)c2c1 — EC50 (parasite growth, SYBR Green; DD2; 72 h, drug-resistant strain, blood stage): > 0.4 µM
C[C@H]1[C@@H](CC(=O)NCCCC(=O)N[C@@H](CC(=O)NC(C)(C)C)C(=O)NCCNC(=O)c2cc(-c3ccccc3F)ccc2F)O[C@@H]2O[C@@]3(C)CC[C@H]4[C@H](C)CC[C@@H]1[C@@]24O3 — EC50 (parasite growth; Dd2 beta6 A117D, proteasome inhibitor-resistant, erythrocytic stage; 72 h): 0.246 ± 0.0445 µM
CC[C@H](C)[C@H](NC(=O)[C@H](C)NC(=O)[C@@H]1CCCN1C(=O)C(C)(C)NC(=O)[C@H](CC(C)C)NC(=O)[C@H](CCC(N)=O)NC(=O)C(C)(C)NC(C)=O)C(=O)NC(C)(C)C(=O)N1CCC[C@H]1C(=O)N[C@](C)(CC)C(=O)N[C@@H](CC(C)C)C(=O)NC(C)(C)C(=O)N1CCC[C@H]1C(=O)N[C@H](CO)CC(C)C — EC50 (parasite growth; DD2; drug-resistant strain): 0.63 µM
Cc1[nH]c2ccccc2c(=O)c1-c1ccc(Oc2ccccc2)cc1 — EC50 (parasite growth, SYBR Green; DD2; 72 h, drug-resistant strain, blood stage): 0.01 µM
Cc1cc(Nc2ccc(S(F)(F)(F)(F)F)cc2)n2nc(C(C)(F)F)nc2n1 — EC50 (parasite growth; Dd2 DHODH C276F clone CL2): 0.39 ± 0.23 µM
Cc1cc(Nc2cc(F)c(C(F)(F)F)c(F)c2)n2ncnc2n1 — EC50 (parasite growth, [3H]hypoxanthine uptake; 3D7): ~0.2 µM
CCC(=O)CCCCC[C@@H]1NC(=O)[C@H]2CCCN2C(=O)[C@H](C(C)CC)NC(=O)[C@H](Cc2cn(OC)c3ccccc23)NC1=O (stereo partly drawn) — EC50 (parasite growth, SYBR Green I; 3D7, drug-sensitive; 72 h): 0.41 ± 0.05 µM
CC(=O)NC(C)(C)C(=O)N[C@@H](C)C(=O)NC(C)(C)C(=O)N[C@@H](C)C(=O)NC(C)(C)C(=O)N[C@@H](C)C(=O)N[C@@H](CCC(N)=O)C(=O)NC(C)(C)C(=O)N[C@H](C(=O)NC(C)(C)C(=O)NCC(=O)N[C@@H](CC(C)C)C(=O)NC(C)(C)C(=O)N1CCC[C@H]1C(=O)N[C@H](C(=O)NC(C)(C)C(=O)NC(C)(C)C(=O)N[C@@H](CCC(N)=O)C(=O)N[C@@H](CCC(N)=O)C(=O)N[C@H](CO)Cc1ccccc1)C(C)C)C(C)C — EC50 (parasite growth; DD2; drug-resistant strain): 0.56 µM
O=C(NC1CCCC1)[C@@H]1CCCCOc2cccc(c2)C[C@H](N2CCCC2=O)C(=O)N[C@@H](CCN2CCOCC2)C(=O)N1 — EC50 (asexual blood stage growth; W2; 72 h): 0.009 µM

Excerpt of the above:
CC(=O)NC(C)(C)C(=O)N[C@@H](C)C(=O)NC(C)(C)C(=O)N[C@@H](C)C(=O)NC(C)(C)C(=O)N[C@@H](C)C(=O)N[C@@H](CCC(N)=O)C(=O)NC(C)(C)C(=O)N[C@@H](CC(C)C)C(=O)NC(C)(C)C(=O)NCC(=O)N[C@@H](CC(C)C)C(=O)NC(C)(C)C(=O)N1CCC[C@H]1C(=O)N[C@H](C(=O)NC(C)(C)C(=O)NC(C)(C)C(=O)N[C@@H](CCC(N)=O)C(=O)N[C@@H](CCC(N)=O)C(=O)N[C@H](CO)Cc1ccccc1)C(C)C — EC50 (parasite growth; DD2; drug-resistant strain): 0.32 µM
Clc1ccc2nc(-c3ccncc3)cc(NCCCCN3CCOCC3)c2c1 — EC50 (parasite growth, SYBR Green; DD2; 72 h, drug-resistant strain, blood stage): > 0.4 µM
